Assay results pooled from the literature.
Numbered parts are unrelated; each lists some results of a single study.
UniProt Q9BVS4, sequence (whole entry, looked up): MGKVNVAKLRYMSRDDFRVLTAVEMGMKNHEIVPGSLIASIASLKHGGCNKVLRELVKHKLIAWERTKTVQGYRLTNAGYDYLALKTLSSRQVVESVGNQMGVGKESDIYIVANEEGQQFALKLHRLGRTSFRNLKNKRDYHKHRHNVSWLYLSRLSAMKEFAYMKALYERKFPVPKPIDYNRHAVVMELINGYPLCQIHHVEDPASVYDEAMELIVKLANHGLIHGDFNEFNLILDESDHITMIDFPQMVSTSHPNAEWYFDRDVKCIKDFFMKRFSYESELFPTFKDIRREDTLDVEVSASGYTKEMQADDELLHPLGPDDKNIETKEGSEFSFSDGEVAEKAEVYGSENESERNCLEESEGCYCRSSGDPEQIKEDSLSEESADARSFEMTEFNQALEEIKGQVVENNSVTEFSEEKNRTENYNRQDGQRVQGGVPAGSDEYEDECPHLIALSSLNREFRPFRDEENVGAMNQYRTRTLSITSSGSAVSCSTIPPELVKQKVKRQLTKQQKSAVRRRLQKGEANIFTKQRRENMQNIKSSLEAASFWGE
UniProt Q96RR4, sequence (whole entry, looked up): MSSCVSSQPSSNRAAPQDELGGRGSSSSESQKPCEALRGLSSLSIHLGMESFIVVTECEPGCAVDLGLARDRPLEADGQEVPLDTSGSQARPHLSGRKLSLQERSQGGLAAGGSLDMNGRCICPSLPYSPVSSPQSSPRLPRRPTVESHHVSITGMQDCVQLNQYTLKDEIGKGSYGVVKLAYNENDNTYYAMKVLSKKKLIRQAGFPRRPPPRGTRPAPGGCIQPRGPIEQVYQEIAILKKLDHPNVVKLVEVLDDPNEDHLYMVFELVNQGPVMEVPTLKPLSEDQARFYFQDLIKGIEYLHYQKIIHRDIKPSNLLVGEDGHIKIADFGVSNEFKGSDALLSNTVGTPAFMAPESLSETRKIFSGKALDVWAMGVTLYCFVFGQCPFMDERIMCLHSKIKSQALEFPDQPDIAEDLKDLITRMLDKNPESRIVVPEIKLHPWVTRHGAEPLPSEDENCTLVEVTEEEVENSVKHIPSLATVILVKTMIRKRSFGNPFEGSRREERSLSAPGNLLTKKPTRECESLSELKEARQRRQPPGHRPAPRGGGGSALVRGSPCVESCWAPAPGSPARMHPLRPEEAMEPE
UniProt Q9Y3S1, sequence (whole entry, looked up): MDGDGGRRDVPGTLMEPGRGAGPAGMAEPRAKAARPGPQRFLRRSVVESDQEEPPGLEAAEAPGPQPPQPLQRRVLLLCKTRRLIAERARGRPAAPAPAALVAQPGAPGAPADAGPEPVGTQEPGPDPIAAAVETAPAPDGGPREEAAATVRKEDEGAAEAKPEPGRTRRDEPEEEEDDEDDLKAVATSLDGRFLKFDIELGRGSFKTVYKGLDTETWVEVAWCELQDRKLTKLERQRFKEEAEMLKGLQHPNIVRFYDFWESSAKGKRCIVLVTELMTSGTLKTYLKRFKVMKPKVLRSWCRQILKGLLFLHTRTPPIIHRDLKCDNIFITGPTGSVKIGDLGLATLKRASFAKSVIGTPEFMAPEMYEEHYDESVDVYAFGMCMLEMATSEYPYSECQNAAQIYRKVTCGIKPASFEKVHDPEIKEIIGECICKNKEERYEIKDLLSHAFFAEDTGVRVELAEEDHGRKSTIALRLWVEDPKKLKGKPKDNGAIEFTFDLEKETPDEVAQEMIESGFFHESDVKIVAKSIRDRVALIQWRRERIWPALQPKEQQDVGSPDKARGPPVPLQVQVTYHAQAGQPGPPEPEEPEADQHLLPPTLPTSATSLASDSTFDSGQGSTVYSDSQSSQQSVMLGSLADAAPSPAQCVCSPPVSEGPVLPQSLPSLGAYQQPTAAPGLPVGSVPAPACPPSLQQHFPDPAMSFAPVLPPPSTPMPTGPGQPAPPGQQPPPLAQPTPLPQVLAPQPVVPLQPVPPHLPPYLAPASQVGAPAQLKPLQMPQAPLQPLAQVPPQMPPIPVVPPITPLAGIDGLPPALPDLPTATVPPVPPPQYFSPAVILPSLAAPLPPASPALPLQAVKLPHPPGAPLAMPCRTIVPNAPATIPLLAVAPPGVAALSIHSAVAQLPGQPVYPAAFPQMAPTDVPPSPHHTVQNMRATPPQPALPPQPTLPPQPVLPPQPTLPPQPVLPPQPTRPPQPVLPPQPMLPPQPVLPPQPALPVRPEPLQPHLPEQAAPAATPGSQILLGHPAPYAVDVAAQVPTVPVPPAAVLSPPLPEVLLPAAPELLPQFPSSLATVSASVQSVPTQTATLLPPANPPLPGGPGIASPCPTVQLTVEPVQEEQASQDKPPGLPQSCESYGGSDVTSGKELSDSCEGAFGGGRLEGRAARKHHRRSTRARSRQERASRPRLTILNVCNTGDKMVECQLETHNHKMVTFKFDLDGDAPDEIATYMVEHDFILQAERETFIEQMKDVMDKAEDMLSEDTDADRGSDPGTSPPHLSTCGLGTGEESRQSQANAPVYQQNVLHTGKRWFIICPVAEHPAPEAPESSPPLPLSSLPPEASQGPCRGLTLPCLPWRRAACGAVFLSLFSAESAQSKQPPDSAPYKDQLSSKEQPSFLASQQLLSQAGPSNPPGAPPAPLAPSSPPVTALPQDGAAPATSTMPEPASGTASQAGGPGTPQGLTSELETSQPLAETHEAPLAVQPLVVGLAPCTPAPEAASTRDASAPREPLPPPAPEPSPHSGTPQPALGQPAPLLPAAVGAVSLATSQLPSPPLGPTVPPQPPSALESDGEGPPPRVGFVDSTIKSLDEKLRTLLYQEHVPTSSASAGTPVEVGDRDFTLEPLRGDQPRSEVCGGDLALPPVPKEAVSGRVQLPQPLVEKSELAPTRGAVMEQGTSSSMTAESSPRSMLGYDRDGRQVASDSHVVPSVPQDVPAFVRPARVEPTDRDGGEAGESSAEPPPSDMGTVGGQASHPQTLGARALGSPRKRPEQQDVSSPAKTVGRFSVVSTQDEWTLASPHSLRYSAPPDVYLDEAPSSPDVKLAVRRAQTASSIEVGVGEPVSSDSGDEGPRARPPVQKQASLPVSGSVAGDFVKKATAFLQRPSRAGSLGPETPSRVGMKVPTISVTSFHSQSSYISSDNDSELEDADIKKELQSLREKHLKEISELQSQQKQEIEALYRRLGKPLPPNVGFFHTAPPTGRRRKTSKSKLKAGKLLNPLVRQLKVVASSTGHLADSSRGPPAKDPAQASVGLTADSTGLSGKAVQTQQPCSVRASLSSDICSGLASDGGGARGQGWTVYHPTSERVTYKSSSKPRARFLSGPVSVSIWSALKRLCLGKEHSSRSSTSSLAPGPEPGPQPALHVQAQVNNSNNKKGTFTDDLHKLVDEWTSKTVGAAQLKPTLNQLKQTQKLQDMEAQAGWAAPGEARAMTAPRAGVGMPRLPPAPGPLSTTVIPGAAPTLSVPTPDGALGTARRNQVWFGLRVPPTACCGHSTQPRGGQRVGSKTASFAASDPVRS
UniProt P35626, sequence (whole entry, looked up): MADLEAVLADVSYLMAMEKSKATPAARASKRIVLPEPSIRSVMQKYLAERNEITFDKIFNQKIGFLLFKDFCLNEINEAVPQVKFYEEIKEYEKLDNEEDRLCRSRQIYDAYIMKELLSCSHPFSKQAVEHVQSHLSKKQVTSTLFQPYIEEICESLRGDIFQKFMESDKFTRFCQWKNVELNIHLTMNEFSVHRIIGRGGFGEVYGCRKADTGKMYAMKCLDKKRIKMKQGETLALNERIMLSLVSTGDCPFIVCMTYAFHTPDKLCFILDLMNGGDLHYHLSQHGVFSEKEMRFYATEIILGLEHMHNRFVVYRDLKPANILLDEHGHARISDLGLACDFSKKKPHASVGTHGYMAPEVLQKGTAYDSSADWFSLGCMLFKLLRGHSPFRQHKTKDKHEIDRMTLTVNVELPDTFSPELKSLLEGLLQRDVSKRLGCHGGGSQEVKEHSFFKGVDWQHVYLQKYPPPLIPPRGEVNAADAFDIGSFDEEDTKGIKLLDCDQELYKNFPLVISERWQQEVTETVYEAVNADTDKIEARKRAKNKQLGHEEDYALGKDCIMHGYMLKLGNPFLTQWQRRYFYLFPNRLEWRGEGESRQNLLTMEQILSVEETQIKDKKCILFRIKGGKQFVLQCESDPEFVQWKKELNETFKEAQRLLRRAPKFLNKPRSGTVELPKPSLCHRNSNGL
UniProt Q14164, sequence (whole entry, looked up): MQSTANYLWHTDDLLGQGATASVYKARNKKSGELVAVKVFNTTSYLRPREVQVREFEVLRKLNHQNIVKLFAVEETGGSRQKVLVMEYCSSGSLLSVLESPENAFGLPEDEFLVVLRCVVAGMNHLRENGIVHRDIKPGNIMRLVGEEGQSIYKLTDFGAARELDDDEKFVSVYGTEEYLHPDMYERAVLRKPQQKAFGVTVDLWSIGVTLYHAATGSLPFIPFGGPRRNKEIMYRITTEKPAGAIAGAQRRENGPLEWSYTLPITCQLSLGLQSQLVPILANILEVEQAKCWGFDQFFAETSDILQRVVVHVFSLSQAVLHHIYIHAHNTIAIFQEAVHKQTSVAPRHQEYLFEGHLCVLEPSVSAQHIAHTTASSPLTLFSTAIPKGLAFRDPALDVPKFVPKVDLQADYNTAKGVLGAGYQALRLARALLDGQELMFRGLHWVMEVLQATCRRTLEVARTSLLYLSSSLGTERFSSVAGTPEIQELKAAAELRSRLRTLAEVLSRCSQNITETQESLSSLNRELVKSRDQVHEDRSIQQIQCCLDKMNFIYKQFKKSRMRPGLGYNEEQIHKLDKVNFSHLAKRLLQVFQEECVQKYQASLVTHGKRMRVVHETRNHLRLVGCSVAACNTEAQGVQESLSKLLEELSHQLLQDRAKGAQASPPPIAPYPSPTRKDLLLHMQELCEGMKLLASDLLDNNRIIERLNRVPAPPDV

Sample 1 — effect on: cell-free assay; technique: competition with immobilised ligand; concentration: 1 µM; quantity: remaining binding
SMILES: C[C@@]1(Cc2ccc(C#N)cc2)C(=O)N(c2cc(Cl)cc(Cl)c2)c2ncc(C(=O)NC3(c4nc(C5CCC5)no4)CC3)n21
WNK2 (Homo sapiens, UniProt Q9Y3S1): 100%
TBK1 (Homo sapiens, UniProt Q9UHD2): 95%
RIOK2 (Homo sapiens, UniProt Q9BVS4): 100%
CDK3 (Homo sapiens, UniProt Q00526): 100%
PHKG1 (Homo sapiens, UniProt Q16816): 100%

Sample 2 — SMILES: CCC(=O)Nc1ccc2ncnc(Nc3cccc(Br)c3)c2c1; effect on: enzyme activity; action: inhibitor; concentration: 0.5 µM; relative to: control; quantity: remaining activity
MAPK9 (Homo sapiens, UniProt P45984): 78.3%
GRK3 (Homo sapiens, UniProt P35626): 99.2%
MAP3K3 (Homo sapiens, UniProt Q99759): 89.8%
OXSR1 (Homo sapiens, UniProt O95747): 107%
CAMKK2 (Homo sapiens, UniProt Q96RR4): 84.3%
IKBKE (Homo sapiens, UniProt Q14164): 94.9%

Sample 3 — technique: Sort-seq; measured: YFP reporter; sample: E. coli; notes: PhoQ-PhoP variant library; added: 10 µM Mg2+; relative to: high Mg2+ state; reading: higher = stronger signaling; quantity: fold induction
Molecule: PhoQ, residues 284 288 289 292 302 303 ALSMDL
PhoP, residues 12 14 15 18 19 AYFRS (Escherichia coli, UniProt P23836): 22
PhoP, residues 12 14 15 18 19 SFCSL (Escherichia coli, UniProt P23836): 6.71
PhoP, residues 12 14 15 18 19 HHYTI (Escherichia coli, UniProt P23836): 17.2

Sample 4 — technique: protein-binding microarray; molecule type: hairpin DNA; sample: in vitro; concentration: not given; relative to: not given; reading: higher = stronger binding; quantity: median fluorescence
Target: Microphthalmia-associated transcription factor, full length (MITF, Homo sapiens, UniProt O75030-10, residues 1-413)
Notes: whole hairpin DNA, median over replicate spots
CACTCGGCACGTGATTTTGGTCCTCCAAAATCACGTGCCGAGTGACACTC (5mC at 5 39): 25000 a.u.
CACTTAGCATGTGATTTTGGTCCTCCAAAATCACATGCTAAGTGACACTC: 17300 a.u.
CACTTAGTACGTGATTTTGGTCCTCCAAAATCACGTACTAAGTGACACTC: 6390 a.u.
CACTTAGCACTTGATTTTGGTCCTCCAAAATCAAGTGCTAAGTGACACTC: 5010 a.u.
CACTTCGCACGTGATTTTGGTCCTCCAAAATCACGTGCGAAGTGACACTC (5mC at 6 38): 23300 a.u.
GAGGCCTAGCAGGTGCTGCCTCCTGGCAGCACCTGCTAGGCCTCACACTC: 7050 a.u.
CACTTAGCCCGTGATTTTGGTCCTCCAAAATCACGGGCTAAGTGACACTC (5mC at 9): 9750 a.u.
CACTTAGCACGTCGTTTTGGTCCTCCAAAACGACGTGCTAAGTGACACTC (5mC at 13): 5050 a.u.

Some of these lines once more (sample 2):
CAMKK2 (Homo sapiens, UniProt Q96RR4): 84.3%
GRK3 (Homo sapiens, UniProt P35626): 99.2%
MAP3K3 (Homo sapiens, UniProt Q99759): 89.8%
